Experimental data collected from several papers.
± marks the error that the study gave.

Under “remaining fibrinogen Aα chain”, `CNC(=O)[C@@H](NC(=O)[C@H](CC(C)C)[C@H](O)C(=O)NO)C(C)(C)C` is recorded as 0.32 (human fibrinogen; SDS-PAGE; Daboia russelii; concentration not given, unit not given, added: TN venom; relative to: untreated fibrinogen).
`VTLADAGFIKQYGDC` has a responding donors of 17% (human CD4 T cells; AIM; peptide).
For `NC(=O)CCNC(=O)c1ccccc1S`, the EC50 was 4530 ± 520 nM (HIV-1; viral replication; human PBMC, subtype A 92RW009, CCR5-tropic clinical isolate).
With `Nc1ncnc2c([C@@H]3N[C@H](CO)[C@@H](O)[C@H]3O)c[nH]c12` the inhibition was 64.6% (Middle East respiratory syndrome-related coronavirus; viral replication; Vero C1008, Jordan N3; 100 µM).
`SALEPLVDLPIGINI` has a responding donors of 9% (human CD4 T cells; AIM; peptide).
With `Cn1c(Cn2ccc(C(F)(F)F)c(Oc3cc(Cl)cc(C#N)c3)c2=O)n[nH]c1=O` the EC50 was 15.6 ± 4 nM (HIV-1; viral replication, single-round infection; RT mutant V106A).
For `Cc1nc2n(n1)CC(=O)N[C@@H](C(C)C)CN(C(=O)c1ccccn1)CC(=O)N[C@@H](CC(C)C)c1nc(cs1)C(=O)N[C@H]2Cc1ccccc1`, the remaining activity was 75% (Lassa mammarenavirus; viral replication; Huh-7; 10 µM, 72 h).
With `O=C(Nc1cccc(Cl)c1)C1CCCN(Cc2cccc(-c3ccc(F)cc3F)c2)C1` (centres unmarked) the efficacy was 47.3% (SARS-CoV-2; cytopathic effect; USA_WA1/2020; round 1, 5-point).
The EC50 of `Cc1cc(/C=C/C#N)cc(C)c1Nc1ncc2ncn(-c3c(C)cc(/C=C/C#N)cc3C)c2n1` is reported as 58.8 ± 6 nM (HIV-1; viral replication, single-round infection; RT mutant V106A).
`RFYFYTSKTTVASLI` gave a responding donors of 8% (human CD4 T cells; AIM; peptide).
`CCCOC(C(=O)OC1CCN(C)CC1)(c1ccccc1)c1ccccc1.Cl` has a maximal inhibition of 98% (HeLa; Ebola VLP entry).
For `LPFAMGIIAM`, “frequency of responding donors” read 50% (AIM; peptide, CD8+ T cells from PBMC, human donors; relative to: positive over tested donors).
The EC50 of `Cc1cc(/C=C/C#N)cc(C)c1Nc1nc(Nc2ccc(/C=C/C#N)cc2)ncc1N` is reported as 0.4 ± 0.1 nM (HIV-1; viral replication, single-round infection; RT mutant M184I).
For `CC[C@H](C)[C@H](NC(=O)[C@H](C)NC(=O)[C@H](CO)NC(=O)[C@H](CC(=O)O)NC(=O)[C@H](CO)NC(=O)[C@H](Cc1ccccc1)NC(=O)[C@H](CS)NC(=O)[C@H](CC(=O)O)NC(=O)[C@H](Cc1ccccc1)NC(=O)[C@H](Cc1ccc(O)cc1)NC(=O)[C@H](Cc1ccc(O)cc1)NC(=O)[C@H](CC(C)C)NC(=O)[C@H](Cc1c[nH]cn1)NC(=O)[C@@H](NC(=O)[C@H](CC(C)C)NC(=O)[C@H](CCC(N)=O)NC(=O)[C@H](CC(=O)O)NC(=O)[C@H](C)NC(=O)[C@H](CC(C)C)NC(=O)[C@@H](N)CCC(=O)O)[C@@H](C)CC)C(=O)N[C@@H](CCCNC(=N)N)C(=O)N[C@@H](CCCCN)C(=O)N[C@@H](C)C(=O)N[C@@H](CC(C)C)C(=O)N[C@@H](CC(C)C)C(=O)NCC(=O)N[C@@H](Cc1c[nH]cn1)C(=O)N[C@H](C(=O)N[C@H](C(=O)N[C@@H](CO)C(=O)N1CCC[C@H]1C(=O)N[C@@H](CCCNC(=N)N)C(=O)N[C@@H](CS)C(=O)N[C@@H](CCC(=O)O)C(=O)N[C@@H](Cc1ccc(O)cc1)C(=O)N[C@@H](CCC(N)=O)C(=O)N[C@@H](C)C(=O)NCC(=O)N[C@@H](Cc1c[nH]cn1)C(=O)N[C@@H](CC(N)=O)C(=O)N[C@@H](CCCCN)C(=O)N[C@H](C(=O)O)C(C)C)C(C)C)[C@@H](C)CC`, “increase in binding” read 8.4 fold (human Cul5 (1-384) GST fusion; GST pull-down; 20 µM, added: Zn(NO3)2 40 µM; relative to: no zinc).
`Cc1cn([C@H]2C[C@H](N=[N+]=[N-])[C@@H](CO)O2)c(=O)[nH]c1=O` has an EC50 of 10.2 ± 6.36 nM (HIV-1; viral replication; human PBMC, subtype E 93TH073, dual-tropic clinical isolate).
With `COc1nccnc1-c1c(C)cc(C)cc1C` the remaining activity was 42% (Lassa mammarenavirus; viral replication; Huh-7; 10 µM, 72 h).
`Cc1cc(/C=C/C#N)cc(C)c1Nc1ccnc(Nc2ccc(C#N)cc2)n1` has an EC50 of 0.2 nM (HIV-1; viral replication, single-round infection; RT mutant K101E/M184V).
Under “fusion time constant”, `C/C=C1\NC(=O)C(C(C)O)NC(=O)C(CCCN)NC(=O)C(CCO)NC(=O)CNC(=O)C(CCN)NC(=O)C(NC(=O)CC(O)CCCCCCCCCCC)COC(=O)C(C(O)CCl)NC(=O)C(C(O)C(=O)O)NC1=O` (centres unmarked) is recorded as 31 ± 7 min (calcein leakage; DOPC/DOPG/CHOL liposomes; concentration not given, added: 40 mM CaCl2).
The remaining activity of `Cc1ccc(CN(C)C(=O)c2n[nH]c(N)c2-c2ccccc2)o1` is reported as 60% (Lassa mammarenavirus; viral replication; Huh-7; 10 µM, 72 h).
With `C[C@@H](C1=C(CCN(C)C)Cc2ccccc21)c1ccccn1.O=C(O)/C=C\C(=O)O` the maximal inhibition was 90% (HeLa; Ebola VLP entry).
`Cc1nc2n(n1)CC(=O)N[C@@H](C(C)C)CN(Cc1c[nH]cn1)CC(=O)N[C@@H](CC(C)C)c1nc(cs1)C(=O)N[C@H]2Cc1ccccc1` gave a remaining activity of 98% (Lassa mammarenavirus; viral replication; Huh-7; 10 µM, 72 h).
`AEIRASANL`: “response magnitude per positive donor” 113 (AIM; peptide, CD8+ T cells from PBMC, human donors; dose not given).
`Cn1cc(CN2CCCC(COc3ccccc3C(=O)N3CCCCC3)C2)c2ccccc21` (centres unmarked) has an AC50 of 12.6 µM (SARS-CoV-2; cytopathic effect, cell-based CPE; USA_WA1/2020; round 1, 5-point dilution).
`Cn1cnc(Cn2c(=O)[nH]/c(=N\c3cc4cn(C)nc4cc3Cl)n(Cc3cc(F)c(F)cc3F)c2=O)n1` — result for “treatment-related TEAE, Mild severity”: 0% (human, moderate renal impairment; oral, 375 mg).
With `YMSALNHTKKWKYPQ` the responding donors was 9% (human CD4 T cells; AIM; peptide).
For `Cc1ccc(-c2cccc(CN3CCCC(NC(=O)c4c(C)noc4C)C3)c2)cc1Cl` (centres unmarked), the maximum response was 92.6% (SARS-CoV-2; cytopathic effect; USA_WA1/2020; round 1, 5-point).
The remaining activity of `Clc1ccc(CN2CCN(Cc3c[nH]c(CC4CCCC4)n3)CC2)cc1` is reported as 31% (Lassa mammarenavirus; viral replication; Huh-7; 10 µM, 72 h).
With `CCn1c2ccccc2c2cc(CN3CCN(Cc4cccc(Cl)c4)CC3)ccc21` the efficacy was 79.5% (SARS-CoV-2; cytopathic effect; USA_WA1/2020; retest, 8-point, duplicates).
For `CCc1c(C(=O)C(N)=O)c2c(OCC(=O)O)cccc2n1Cc1ccccc1`, the viability difference was 31.6% (C2C12; 10 µM, added: MP venom; relative to: venom alone).
For `CCN1C(=O)N(CCc2ccccc2)C2(CCN(Cc3cccn3-c3ccc(Cl)cn3)CC2)C1=O`, the remaining activity was 44% (Lassa mammarenavirus; viral replication; Huh-7; 10 µM, 72 h).
`TNCYDYCIPYNSVTS` gave a responding donors of 7% (human CD4 T cells; AIM; peptide).
`CCCC(=O)OCSc1ccccc1C(=O)NCCC(N)=O` gave an EC50 of 6590 ± 8500 nM (HIV-1; viral replication; human PBMC, subtype A 92UG029, CXCR4-tropic clinical isolate).
`Cc1ccc(C)c(Nc2cc(C(=O)NCCCN(C)C3CCCCC3)c3ccccc3n2)c1` has an efficacy of 83.4% (SARS-CoV-2; cytopathic effect; USA_WA1/2020; round 2, 5-point).
`CC[C@H](C)[C@H](NC(=O)[C@H](CC(C)C)NC(=O)[C@H](Cc1c[nH]c2ccccc12)NC(=O)[C@H](CCC(N)=O)NC(=O)[C@@H](NC(=O)[C@H](Cc1ccccc1)NC(=O)[C@H](C)NC(=O)[C@H](CCCCNC(=O)COCCOCCNC(=O)COCCOCCNC(=O)CC[C@H](NC(=O)CCCCCCCCCCCCCCCCCCC(=O)O)C(=O)O)NC(=O)[C@H](CCC(N)=O)NC(=O)[C@H](C)NC(=O)[C@@H](NC(=O)[C@H](CCCCN)NC(=O)[C@H](CC(=O)O)NC(=O)[C@H](CC(C)C)NC(=O)C(C)(C)NC(=O)[C@@H](NC(=O)[C@H](CO)NC(=O)[C@H](Cc1ccc(O)cc1)NC(=O)[C@H](CC(=O)O)NC(=O)[C@H](CO)NC(=O)[C@@H](NC(=O)[C@H](Cc1ccccc1)NC(=O)[C@@H](NC(=O)CNC(=O)[C@H](CCC(=O)O)NC(=O)C(C)(C)NC(=O)[C@@H](N)Cc1ccc(O)cc1)[C@@H](C)O)[C@@H](C)O)[C@@H](C)CC)[C@@H](C)CC)C(C)C)C(=O)N[C@@H](C)C(=O)NCC(=O)NCC(=O)N1CCC[C@H]1C(=O)N[C@@H](CO)C(=O)N[C@@H](CO)C(=O)NCC(=O)N[C@@H](C)C(=O)N1CCC[C@H]1C(=O)N1CCC[C@H]1C(=O)N1CCC[C@H]1C(=O)N[C@@H](CO)C(N)=O`: “treatment-boosted ADA positive subjects” 0% (healthy subjects, single ascending dose; 1.0 mg, titre increase ≥4-fold).
For `Cc1cc(/C=C/C#N)cc(C)c1-n1cnc2cnc(Nc3ccc4cc(C#N)ccc4c3)nc21`, the EC50 was under 2.3 nM (HIV-1; viral replication, single-round infection; RT mutant L234I).
With `FLCWHTNCYDYCIPY` the responding donors was 7% (human CD4 T cells; AIM; peptide).
The maximal response of `COc1ccc(Nc2cc(C(=O)NCCCN(C)Cc3ccccc3)c3ccccc3n2)cc1` is reported as 65.9% (SARS-CoV-2; cytopathic effect, cell-based CPE; USA_WA1/2020; round 2, 5-point dilution).
The tetracycline MIC of `N#CC(C#N)=NNc1cccc(Cl)c1` is reported as 225 µM (Escherichia coli; checkerboard; tetracycline-resistant (pBR322); 42 µM, added: tetracycline).
For `COc1ccccc1C(=O)NC1CCCN(Cc2cccc(-c3ccc(C)c(Cl)c3)c2)C1` (centres unmarked), the efficacy was 37.6% (SARS-CoV-2; cytopathic effect; USA_WA1/2020; retest, 8-point, duplicates).
`COP(=O)(OC)OC=C(Cl)Cl` has a Vmax of 0.53 ± 0.07 nmol/min/mg protein (rat CYP3A; midazolam 4-hydroxylation; liver microsomes; concentration not given).
The remaining activity of `Cc1cccc(-c2ncc(CN3CCN(CC(=O)N4CCCC4)CC3)cn2)c1` is reported as 37% (Lassa mammarenavirus; viral replication; Huh-7; 10 µM, 72 h).
`CC(C)(C)N1CCC(c2ccccc2)(c2ccccc2)CC1` gave an AC50 of 10 µM (SARS-CoV-2; cytopathic effect, cell-based CPE; USA_WA1/2020; round 1, 5-point dilution).
`O=C1Nc2ccc(Cl)cc2[C@@](C#CC2CC2)(C(F)(F)F)O1` has an EC50 of 0.9 ± 0.2 nM (HIV-1; viral replication, single-round infection; RT mutant Y181I).
The remaining activity of `CC(=O)N1CC(=O)N[C@@H](CC(C)C)c2nc(cs2)C(=O)N[C@@H](Cc2ccccc2)c2nc(C)nn2CC(=O)N[C@@H](C(C)C)C1` is reported as 119% (Lassa mammarenavirus; viral replication; Huh-7; 10 µM, 72 h).

Some of these lines once more:
For `CCc1c(C(=O)C(N)=O)c2c(OCC(=O)O)cccc2n1Cc1ccccc1`, the viability difference was 31.6% (C2C12; 10 µM, added: MP venom; relative to: venom alone).
`CCCOC(C(=O)OC1CCN(C)CC1)(c1ccccc1)c1ccccc1.Cl` has a maximal inhibition of 98% (HeLa; Ebola VLP entry).
The tetracycline MIC of `N#CC(C#N)=NNc1cccc(Cl)c1` is reported as 225 µM (Escherichia coli; checkerboard; tetracycline-resistant (pBR322); 42 µM, added: tetracycline).
With `C[C@@H](C1=C(CCN(C)C)Cc2ccccc21)c1ccccn1.O=C(O)/C=C\C(=O)O` the maximal inhibition was 90% (HeLa; Ebola VLP entry).
